Measurements collected from several papers.
Lines come from different studies, so protocols differ. Several values in a cell are separate wells, animals, samples, runs or records. ± gives the spread as reported. ≈ marks a conversion by molar mass, not a printed value.

O=C1C[C@@H](c2ccc(O)cc2)Oc2cc(O)cc(O)c21  hemolysis (red blood cells; 20 ppm, 1 h): 1.67%
O=C(O)CCCCCCCCCCC(=O)O  relative peak deviation (human, plasma; endogenous baseline diurnal; reference: daily mean concentration): 80.5 ± 10.7%
Cc1nc2cccc(OCC(C)(C)C(=O)NC(C)C)c2c(N)c1C(=O)O  Cmax ratio (Sprague-Dawley rat, female, plasma; oral, 100 mg/kg, day 7 over day 1, 7-day repeated dosing; reference: day 7 over day 1): 0.71 ± 0.38
O=C(c1cccnc1-c1ccncc1)N1CCC(O)(Cc2ccccc2)CC1  terminal half-life (healthy Japanese adults, plasma; oral, 300 mg twice daily, day 21): 176 min
COc1cc(C(=O)N2CCC3(CC2)CC(=O)c2c(cnn2C(C)C)C3)cc(-c2ccc(C(=O)O)cc2)n1  total cholesterol change from baseline (human, fasting serum; 40 mg once daily, day 13, adjusted geometric mean): 2.1%
CCOCC(=O)N1CCC[C@H](C(=O)NCc2nc(-c3ccc(C#N)nc3)cs2)C1  urinary excretion (Sprague-Dawley rat, male, urine; intravenous, 1 mg/kg, 24 h; reference: dose): 4.7%
CO[C@H]1C[C@@H]2CC[C@@H](C)[C@@](O)(O2)C(=O)C(=O)N2CCCC[C@H]2C(=O)O[C@H]([C@H](C)C[C@@H]2CC[C@@H](OC(=O)NCCOCCOCCOCCOCCOCCOCCOCCOCCC(=O)N3CCc4cc(Cn5nc(-c6ccc7oc(N)nc7c6)c6c(N)ncnc65)ccc4C3)[C@H](OC)C2)C[C@@H](O)[C@H](C)/C=C(\C)[C@@H](O)[C@@H](OC)C(=O)[C@H](C)C[C@H](C)/C=C/C=C/C=C/1C  unbound Cmax (human patients, plasma; intravenous, 12 mg, cycle 1 day 15): 24.1 nM
C[C@@H]1CCO[C@H]2Cn3cc(C(=O)NCc4ccc(F)cc4F)c(=O)c(O)c3C(=O)N12  AUC(0-24) (population PK, post-hoc; children, 25 to <30 kg, plasma; oral, 50 mg film-coated tablet, steady state, geometric mean): 65000 ng·h/mL
COc1ccc2c(c1)CN(C(=O)CCN1CCC(Cc3ccccc3)CC1)CC[S@@+]2[O-]  blood concentration (beagle dog, male; intravenous, 8 mg/kg, day 1, 14-day toxicity study): 6440 ± 2110 ng/mL
FC(F)(F)c1ccc(CNc2ccc(Cc3c[nH]c4ncc(Cl)cc34)cn2)cn1  adverse event incidence (refers to: Dysgeusia; patients with advanced solid tumours; oral, dose not given, grade 3 and 4, possibly related to drug): 0%
C[C@@H](Oc1ccc(S(C)(=O)=O)cc1C(=O)N1C[C@@H]2C[C@]2(c2cc(C(F)(F)F)on2)C1)C(F)(F)F  subjects with diarrhoea (human; oral plus intravenous microtracer, dose not given): 16.7%
CCN1/C(=C/C(C)=O)Sc2ccc(F)cc21  mean blood pressure change (cynomolgus monkey; oral, 30 mg/kg, 6 h post-dose; reference: pre-dose): 102 ± 1.2%
CNCc1ccc(-c2[nH]c3cc(F)cc4c3c2CCNC4=O)cc1  cough incidence (patients; oral, 600 mg twice daily, grade 2): 0%
CN(C(=O)n1cnc(-c2cccnc2)c1)[C@H]1CC[C@H](O)CC1  concentration (Wistar rat, midbrain; oral, 10 mg/kg of BIA 10-2474, 24 h, single dose): 18 ± 1.2 ng/g
C[C@@H](Oc1ccc(S(C)(=O)=O)cc1C(=O)N1C[C@@H]2C[C@]2(c2cc(C(F)(F)F)on2)C1)C(F)(F)F  fed over fasted ratio (refers to: Cmax; healthy human volunteers; oral, 10 mg; reference: fed over fasted): 118%
C=CC(=O)NC1CCN(c2ncc3ncnc(Nc4ccc(Oc5ccc6c(c5)ncn6C)c(C)c4)c3n2)CC1  blood-to-plasma ratio (refers to: total radioactivity; healthy male human, whole blood and plasma; oral, 60 mg, 2 h, geometric mean): 0.746
COc1cc2nccc(Oc3ccc(NC(=O)c4cc5c(n(-c6ccccc6)c4=O)CCCC5=O)nc3)c2cc1OC  patients with decreased platelet (human, relapsed/refractory AML; oral, 3 mg once daily, grade ≥3, any causality): 10%
O=C(O)c1cccc(C(=O)O)c1  apparent dissolution enthalpy (betaine/propylene glycol DES-water; DES mass fraction 0.20): 21 kJ/mol
CC(C)=CC[C@@H](O)C1=CC(=O)c2c(O)ccc(O)c2C1=O  measured concentration (plasma; 500 ng/mL, 3 d, -80 °C, storage stability): 482 ± 9.19 ng/mL
COc1ncc(-c2nc3c(n2C(C)C)[C@H](c2ccc(Cl)cc2)N(c2cc(Cl)cn(C)c2=O)C3=O)c(OC)n1  geometric mean Cmax (human patients, plasma; oral, 7.5 mg, cycle 1 day 1, low-dose): 39 ng/mL
O=C(O)CSc1nnc(Br)n1-c1ccc(C2CC2)c2ccccc12  ALT (KM mouse, chronic hyperuricaemia model, serum; dose not given): 66.6 U/L and 64 U/L and 97.4 U/L and 61.8 U/L and 60.8 U/L and 37.4 U/L
CCc1c(-c2ccccc2)c(-c2ccccc2)nn1-c1ccccc1-c1cccc(OCC(=O)O)c1  Tlast (Sprague-Dawley rat; oral, dose not given): 24 h
C[C@H](CCC(=O)NCC(=O)O)[C@H]1CC[C@H]2[C@@H]3CC[C@@H]4C[C@H](O)CC[C@]4(C)[C@H]3C[C@H](O)[C@]12C  relative peak deviation (human, plasma; endogenous control diurnal; reference: daily mean concentration): 184 ± 23%
Oc1ccc(/C=C/c2cc(O)cc(O)c2)cc1  glucose (rat, azoxymethane-injected, blood at sacrifice; 10 mg/kg): 155 mg/dL and 195 mg/dL and 184 mg/dL
CC(C)[C@H](C(=O)Nc1ccc(C(=O)NO)cc1)c1ccccc1  measured concentration (whole blood; 1000 ng/mL, 5 h, 4 °C, stability on ice): 1050 ng/mL
Cn1cnc2c(F)c(Nc3ccc(Br)cc3Cl)c(C(=O)NOCCO)cc21  relative bioavailability (population PK model; human, plasma; oral, sequential zero-first-order absorption; reference: fed over fasted): 0.85
CC(C)(C(=O)N1CCOc2c(C#N)cncc2C1)C(F)F  subjects with TEAE (refers to: renal and urinary disorders; human, both sexes; oral, 10 mg once daily, 14 days, multiple ascending dose): 12.5%
CCOc1c([C@H](C)n2nc(C)c3c(N)ncnc32)cc(Cl)c(F)c1[C@@H]1CNC(=O)C1  ECG observations (refers to: QTcF ≤450 ms; previously treated B-cell malignancy; oral, 5 mg once daily, overall population): 100%
O=C1COCCN1c1ccc(CO[C@@H]2COc3nc([N+](=O)[O-])cn3C2)cc1F  aqueous solubility (aqueous buffer; pH 7.4): 30.1 µg/mL (≈ 76.7 µM)
Cc1cccc(CNC(=O)c2cn(CCNC(=O)c3ccccc3S)c3cc4c(cc3c2=O)OC(F)(F)O4)n1  half-life (Sprague-Dawley rat, male, whole blood; intramuscular, 30 mg/kg of parent drug): 684 min
[18F]c1ccc(-c2ccc3c(c2)[nH]c2ccncc23)cn1  SUV (microPET/CT imaging; B6SJL mouse, normal, heart; intravenous, 15 min): 0.67 ± 0.187
CC(C)n1c(Nc2cccnc2)nc2cnc(Nc3ccc(N4CCN(C)CC4)cc3)nc21  subjects with adverse event (refers to: antithrombin III antibodies elevated; healthy male subjects; oral, 150 mg, study, together with: rifampin): 7.1%
C[C@@H](c1ncncc1F)[C@](O)(Cn1cncn1)c1ccc(F)cc1F  drug-related TEAE incidence (refers to: Nausea; human; oral, 400 mg): 0%
Cc1ccc([C@@H]2O[C@H](CO)[C@@H](O)[C@H](O)[C@H]2O)cc1Cc1ccc(-c2ccc(F)cc2)s1  urinary magnesium excretion change (Japanese type 2 diabetes patients; 25 mg, day 18, 24 h urine collection; reference: baseline): 28.3 mg
NC/C(=C\F)COc1cccc(Cn2c(=S)[nH]c(=O)c3[nH]cnc32)c1  remaining compound (rat plasma; 1 µM, 1 h): 100%
Cn1c(=O)oc2ccc(-c3ccc(C[C@@H](C#N)NC(=O)[C@@H]4CNCCCO4)cc3)cc21  steady-state plasma concentration (healthy male subjects; oral, dose not given, repeated dosing): 1000 nM
COc1cc(Nc2ncc3c(n2)-c2ccc(Cl)cc2C(c2c(F)cccc2OC)=NC3)ccc1C(=O)O  patients with muscle weakness (cancer patients; oral, dose not given, grade 1 any attribution, together with: pembrolizumab): 21%
CO[C@@H]1[C@H](O)[C@@H](CO)O[C@H]1n1c([N+](=O)[O-])nc2c(=O)[nH]c(N)nc21  nucleoside remaining fraction (depurination, RP-HPLC; citrate-phosphate buffer 0.5 mM; 240 min, pH 5, 37 °C): 0.853
CCc1cc(C(=O)NC)c2nccc(N3CCc4c(cc(Cn5ccnc5)cc4-c4cn(C)nc4C(F)(F)F)C3=O)c2c1  mean corpuscular haemoglobin (Sprague Dawley rats; oral, 50 mg/kg once daily, 7 days): 20.4 ± 0.98 pg

For quick reference, copied from above:
O=C(O)c1cccc(C(=O)O)c1  apparent dissolution enthalpy (betaine/propylene glycol DES-water; DES mass fraction 0.20): 21 kJ/mol
CC(C)[C@H](C(=O)Nc1ccc(C(=O)NO)cc1)c1ccccc1  measured concentration (whole blood; 1000 ng/mL, 5 h, 4 °C, stability on ice): 1050 ng/mL
CC(C)n1c(Nc2cccnc2)nc2cnc(Nc3ccc(N4CCN(C)CC4)cc3)nc21  subjects with adverse event (refers to: antithrombin III antibodies elevated; healthy male subjects; oral, 150 mg, study, together with: rifampin): 7.1%
O=C1COCCN1c1ccc(CO[C@@H]2COc3nc([N+](=O)[O-])cn3C2)cc1F  aqueous solubility (aqueous buffer; pH 7.4): 30.1 µg/mL (≈ 76.7 µM)
O=C1C[C@@H](c2ccc(O)cc2)Oc2cc(O)cc(O)c21  hemolysis (red blood cells; 20 ppm, 1 h): 1.67%
